Experimental data from different studies.
Every numbered part comes from another study and shows a few of its results, in no order. pIC50: −log10 of the molar value.
UniProt P49761, sequence (whole entry, looked up): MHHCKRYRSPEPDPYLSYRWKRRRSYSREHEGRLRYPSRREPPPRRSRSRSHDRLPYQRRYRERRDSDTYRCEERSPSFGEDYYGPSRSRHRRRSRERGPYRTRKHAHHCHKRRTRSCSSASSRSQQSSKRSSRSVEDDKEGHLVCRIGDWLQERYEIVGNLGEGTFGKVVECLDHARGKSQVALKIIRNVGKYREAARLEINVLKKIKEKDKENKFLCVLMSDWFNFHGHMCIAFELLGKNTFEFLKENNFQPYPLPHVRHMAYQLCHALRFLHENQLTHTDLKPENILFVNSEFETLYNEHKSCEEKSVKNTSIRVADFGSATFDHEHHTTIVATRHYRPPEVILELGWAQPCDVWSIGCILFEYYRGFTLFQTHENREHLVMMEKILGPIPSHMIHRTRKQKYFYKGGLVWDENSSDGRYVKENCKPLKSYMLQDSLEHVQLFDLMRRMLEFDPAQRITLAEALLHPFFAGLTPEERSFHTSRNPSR
UniProt O95747, sequence (whole entry, looked up): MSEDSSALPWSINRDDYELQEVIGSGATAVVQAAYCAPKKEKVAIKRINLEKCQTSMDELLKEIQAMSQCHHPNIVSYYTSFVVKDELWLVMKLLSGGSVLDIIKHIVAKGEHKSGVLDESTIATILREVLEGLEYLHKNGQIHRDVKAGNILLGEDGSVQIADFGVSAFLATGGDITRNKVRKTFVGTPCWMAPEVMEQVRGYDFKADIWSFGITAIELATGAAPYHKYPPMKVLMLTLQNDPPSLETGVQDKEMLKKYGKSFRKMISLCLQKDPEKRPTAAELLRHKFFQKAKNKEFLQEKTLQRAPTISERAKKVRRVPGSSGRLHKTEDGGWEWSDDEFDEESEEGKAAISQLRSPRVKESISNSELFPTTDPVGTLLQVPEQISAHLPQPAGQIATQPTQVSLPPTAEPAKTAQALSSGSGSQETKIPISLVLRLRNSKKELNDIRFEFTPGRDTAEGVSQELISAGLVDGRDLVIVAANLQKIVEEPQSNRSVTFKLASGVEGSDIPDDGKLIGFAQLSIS
UniProt P35626, sequence (whole entry, looked up): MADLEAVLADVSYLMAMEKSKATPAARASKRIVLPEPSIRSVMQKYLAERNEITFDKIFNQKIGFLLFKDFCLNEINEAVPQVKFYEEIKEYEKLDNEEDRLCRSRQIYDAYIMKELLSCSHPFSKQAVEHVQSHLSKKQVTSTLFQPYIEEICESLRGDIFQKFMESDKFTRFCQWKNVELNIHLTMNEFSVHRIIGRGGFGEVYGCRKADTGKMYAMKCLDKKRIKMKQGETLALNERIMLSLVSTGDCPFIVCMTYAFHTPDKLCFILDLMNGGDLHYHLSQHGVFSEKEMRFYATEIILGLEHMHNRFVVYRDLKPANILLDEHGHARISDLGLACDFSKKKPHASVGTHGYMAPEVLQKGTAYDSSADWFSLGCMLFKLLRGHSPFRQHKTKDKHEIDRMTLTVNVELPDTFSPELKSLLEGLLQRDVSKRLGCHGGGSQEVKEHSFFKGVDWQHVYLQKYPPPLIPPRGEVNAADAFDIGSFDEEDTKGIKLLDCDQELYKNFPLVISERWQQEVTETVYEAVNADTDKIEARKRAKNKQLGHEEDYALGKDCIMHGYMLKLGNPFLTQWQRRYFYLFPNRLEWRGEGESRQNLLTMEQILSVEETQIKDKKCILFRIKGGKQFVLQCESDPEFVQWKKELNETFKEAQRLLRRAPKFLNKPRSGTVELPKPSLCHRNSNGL
UniProt Q15418, sequence (whole entry, looked up): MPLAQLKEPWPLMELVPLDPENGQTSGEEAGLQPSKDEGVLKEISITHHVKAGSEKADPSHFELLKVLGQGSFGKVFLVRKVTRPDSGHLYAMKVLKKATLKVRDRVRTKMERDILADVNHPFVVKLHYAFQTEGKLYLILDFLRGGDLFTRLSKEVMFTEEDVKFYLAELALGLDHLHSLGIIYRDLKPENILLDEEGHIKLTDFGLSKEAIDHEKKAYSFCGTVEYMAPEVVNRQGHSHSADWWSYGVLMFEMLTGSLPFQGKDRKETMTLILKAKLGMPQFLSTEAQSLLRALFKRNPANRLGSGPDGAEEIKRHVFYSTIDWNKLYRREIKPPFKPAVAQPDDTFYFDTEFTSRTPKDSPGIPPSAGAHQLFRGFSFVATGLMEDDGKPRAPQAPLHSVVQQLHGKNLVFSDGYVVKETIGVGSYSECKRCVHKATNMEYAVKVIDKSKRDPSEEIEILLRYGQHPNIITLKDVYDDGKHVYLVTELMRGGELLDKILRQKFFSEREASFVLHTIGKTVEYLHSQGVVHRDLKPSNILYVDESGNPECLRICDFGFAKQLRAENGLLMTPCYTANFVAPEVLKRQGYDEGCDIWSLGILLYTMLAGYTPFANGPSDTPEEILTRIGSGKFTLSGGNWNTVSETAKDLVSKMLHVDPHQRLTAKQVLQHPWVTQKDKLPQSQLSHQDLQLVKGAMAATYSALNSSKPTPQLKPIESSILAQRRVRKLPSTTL
UniProt Q9BZL6, sequence (whole entry, looked up): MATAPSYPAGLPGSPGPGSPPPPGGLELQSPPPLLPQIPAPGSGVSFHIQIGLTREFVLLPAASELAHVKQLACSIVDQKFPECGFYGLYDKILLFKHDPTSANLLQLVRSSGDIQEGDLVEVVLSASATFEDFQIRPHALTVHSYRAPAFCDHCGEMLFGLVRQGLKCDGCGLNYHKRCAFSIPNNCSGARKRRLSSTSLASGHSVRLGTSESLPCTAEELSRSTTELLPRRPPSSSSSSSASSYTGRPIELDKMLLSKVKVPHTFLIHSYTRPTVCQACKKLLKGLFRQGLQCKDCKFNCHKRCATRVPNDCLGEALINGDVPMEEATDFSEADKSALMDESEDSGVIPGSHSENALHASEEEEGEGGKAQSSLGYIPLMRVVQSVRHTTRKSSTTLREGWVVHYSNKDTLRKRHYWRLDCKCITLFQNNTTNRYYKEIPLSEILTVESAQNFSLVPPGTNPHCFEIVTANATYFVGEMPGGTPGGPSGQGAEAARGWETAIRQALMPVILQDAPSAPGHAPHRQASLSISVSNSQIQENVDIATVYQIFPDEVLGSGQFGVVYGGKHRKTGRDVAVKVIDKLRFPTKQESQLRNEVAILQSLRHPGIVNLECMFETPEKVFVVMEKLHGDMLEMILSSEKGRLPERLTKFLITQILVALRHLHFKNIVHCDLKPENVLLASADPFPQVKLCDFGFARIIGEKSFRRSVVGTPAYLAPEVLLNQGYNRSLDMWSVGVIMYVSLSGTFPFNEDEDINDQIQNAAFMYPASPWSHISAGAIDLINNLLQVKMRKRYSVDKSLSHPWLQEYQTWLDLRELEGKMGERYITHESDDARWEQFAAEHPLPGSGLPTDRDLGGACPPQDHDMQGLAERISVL

Sample 1
Cell line: mouse MPNST tumor cells
Method: high-content immunofluorescence imaging
Measured: nuclear SOX9
Concentration: 10 µM
Time: 12 h
Notes: mean of 2 replicates
Relative to: DMSO control
Reading: higher = more nuclear SOX9
Measurement: nuclear SOX9 intensity
C/N=C(/NC#N)NCCSCc1csc(NC(=N)N)n1: 87.3 % of DMSO
O=C(CCSCc1ccco1)NNC(=O)N1Cc2ccccc2Oc2ccc(Cl)cc21: 115 % of DMSO
CN(C(=O)C(Cl)Cl)c1ccc(OC(=O)c2ccco2)cc1: 91.5 % of DMSO
C(=C\c1ccccc1)/CN1CCN(C(c2ccccc2)c2ccccc2)CC1: 120 % of DMSO
CC(=O)OC(C)C[N+](C)(C)C (stereo not shown): 104 % of DMSO
C[C@]1(Cn2ccnn2)[C@H](C(=O)O)N2C(=O)C[C@H]2S1(=O)=O: 98.2 % of DMSO
CC1(CN2CCC(n3c(=O)[nH]c4ccccc43)CC2)OCc2ccccc2-n2cccc21 (stereo not shown): 122 % of DMSO

Sample 2
Target: Diamine acetyltransferase 1 (Homo sapiens, UniProt P21673)
Mode: inhibitor
Concentration: 10 µM
Relative to: control
Measurement: remaining activity
Construct (P21673 1-171): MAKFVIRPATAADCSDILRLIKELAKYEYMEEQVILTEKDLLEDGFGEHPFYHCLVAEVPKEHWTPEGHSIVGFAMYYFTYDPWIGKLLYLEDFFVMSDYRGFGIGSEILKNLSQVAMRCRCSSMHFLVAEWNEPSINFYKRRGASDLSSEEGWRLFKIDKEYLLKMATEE
C=C1CC[C@@]2(C)[C@H]([C@@H]1C)[C@H]1CC[C@@H]3[C@@]4(C)CC[C@H](O)C(C)(C)[C@@H]4CC[C@@]3(C)[C@]1(C)C[C@@H]2O: 91.2%
C[C@@H]1O[C@@H](O[C@@H]2C(=O)c3c(O)cc(O)cc3O[C@@H]2c2ccc(O)c(O)c2)[C@H](O)[C@H](O)[C@H]1O: 88.7%
COC(=O)c1ccc(O)c(O)c1: 107%
CC(=O)O[C@H]1[C@H](O[C@H]2CC[C@]34C[C@]35CC[C@]3(C)[C@@H]([C@@]6(C)CC[C@@H](C(C)(C)O)O6)[C@@H](O)C[C@@]3(C)[C@@H]5C[C@H](O[C@@H]3O[C@H](CO)[C@@H](O)[C@H](O)[C@H]3O)[C@H]4C2(C)C)OC[C@@H](O)[C@@H]1O: 99.8%

Sample 3
SMILES: CN([C@@H]1CCc2c(CC(=O)O)c3cc(S(C)(=O)=O)ccc3n2C1)S(=O)(=O)c1ccc(F)cc1
Observed: cell-free assay
Method: competition with immobilised ligand
Concentration: 1 µM
Measurement: remaining binding
Ribosomal protein S6 kinase alpha-1, N-terminal kinase domain (RPS6KA1, Homo sapiens, UniProt Q15418): 91%
PAK6 (Homo sapiens, UniProt Q9NQU5): 100%
BTK (Homo sapiens, UniProt Q06187): 90%
MARK3 (Homo sapiens, UniProt P27448): 100%
MTOR (Homo sapiens, UniProt P42345): 79%
FGFR3 (Homo sapiens, UniProt P22607, G697C): 90%
Cyclin-dependent kinase 4, with cyclin D1 (CDK4, Homo sapiens, UniProt P11802): 91%
MAP3K13 (Homo sapiens, UniProt O43283): 100%
MST1R (Homo sapiens, UniProt Q04912): 94%
CDK8 (Homo sapiens, UniProt P49336): 100%
MAP3K10 (Homo sapiens, UniProt Q02779): 100%
MAP2K3 (Homo sapiens, UniProt P46734): 88%
PIK3CG (Homo sapiens, UniProt P48736): 100%
OXSR1 (Homo sapiens, UniProt O95747): 100%
MINK1 (Homo sapiens, UniProt Q8N4C8): 92%
PAK3 (Homo sapiens, UniProt O75914): 79%
ITK (Homo sapiens, UniProt Q08881): 100%
EPHA6 (Homo sapiens, UniProt Q9UF33): 91%
SIK3 (Homo sapiens, UniProt Q9Y2K2): 89%
GRK3 (Homo sapiens, UniProt P35626): 81%
CLK3 (Homo sapiens, UniProt P49761): 100%
Myosin-IIIb (MYO3B, Homo sapiens, UniProt Q8WXR4): 100%
PRKD2 (Homo sapiens, UniProt Q9BZL6): 100%
WNK2 (Homo sapiens, UniProt Q9Y3S1): 80%
COQ8B (Homo sapiens, UniProt Q96D53): 100%

Sample 4
Structure (SMILES): C=CCc1ccc(O)c(-c2cc(CC=C)ccc2O)c1
Observed: chloride current
Method: whole-cell voltage clamp
Measurement: pIC50
ANO1 del476-501/R541I: Anoctamin-1 (ANO1, Homo sapiens, UniProt Q5XXA6, del476-501/R541I)
UniProt Q5XXA6, sequence (whole entry, unmodified, looked up): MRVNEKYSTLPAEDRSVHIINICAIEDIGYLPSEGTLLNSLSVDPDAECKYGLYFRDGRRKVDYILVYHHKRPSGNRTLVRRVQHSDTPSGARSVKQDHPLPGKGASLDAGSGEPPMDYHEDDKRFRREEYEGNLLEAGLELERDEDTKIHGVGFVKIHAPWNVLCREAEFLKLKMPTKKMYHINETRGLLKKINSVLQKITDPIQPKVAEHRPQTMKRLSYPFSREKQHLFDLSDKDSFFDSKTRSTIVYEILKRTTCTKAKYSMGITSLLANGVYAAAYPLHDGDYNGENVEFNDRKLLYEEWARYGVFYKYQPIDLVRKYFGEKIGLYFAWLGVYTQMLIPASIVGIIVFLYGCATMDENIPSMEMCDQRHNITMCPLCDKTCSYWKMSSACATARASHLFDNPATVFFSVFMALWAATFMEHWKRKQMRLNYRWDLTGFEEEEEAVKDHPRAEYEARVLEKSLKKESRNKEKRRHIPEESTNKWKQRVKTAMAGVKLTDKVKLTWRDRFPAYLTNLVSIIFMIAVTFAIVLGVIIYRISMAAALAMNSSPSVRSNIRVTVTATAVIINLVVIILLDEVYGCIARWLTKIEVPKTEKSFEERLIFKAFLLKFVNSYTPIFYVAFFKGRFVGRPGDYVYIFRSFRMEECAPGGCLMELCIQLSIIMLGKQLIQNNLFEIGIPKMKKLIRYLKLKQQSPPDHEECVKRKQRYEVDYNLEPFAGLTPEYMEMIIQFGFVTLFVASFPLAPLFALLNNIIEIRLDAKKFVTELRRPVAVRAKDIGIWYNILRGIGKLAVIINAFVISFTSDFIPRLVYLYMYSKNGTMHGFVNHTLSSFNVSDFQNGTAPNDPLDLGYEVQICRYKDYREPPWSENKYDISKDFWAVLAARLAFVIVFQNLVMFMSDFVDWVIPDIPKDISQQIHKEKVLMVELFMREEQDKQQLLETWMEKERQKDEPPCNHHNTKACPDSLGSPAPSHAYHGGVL
ANO1 del476-501/R541I; inhibitor; R515I mutant at -40 mV: 4.33
Anoctamin-1 (ANO1, Homo sapiens, UniProt Q5XXA6, del476-501/E649D); inhibitor; E623D mutant at -100 mV: 4.03
Anoctamin-1 (ANO1, Homo sapiens, UniProt Q5XXA6, del476-501/K629D); inhibitor; 60 mV holding voltage: 3.67
Anoctamin-1 (ANO1, Homo sapiens, UniProt Q5XXA6, del476-501); membrane voltage 100 mV, together with: 300 nM Ca2+: 4.51
Anoctamin-1 (ANO1, Homo sapiens, UniProt Q5XXA6, del476-501/L548A); membrane voltage -20 mV: 4.49
ANO1 del476-501/R541I; inhibitor; R515I mutant at 20 mV: 4.32

Sample 5
Target: Calcium/calmodulin-dependent protein kinase type II subunit alpha (CAMK2A, Homo sapiens, UniProt Q9UQM7)
UniProt Q9UQM7, sequence (whole entry, looked up): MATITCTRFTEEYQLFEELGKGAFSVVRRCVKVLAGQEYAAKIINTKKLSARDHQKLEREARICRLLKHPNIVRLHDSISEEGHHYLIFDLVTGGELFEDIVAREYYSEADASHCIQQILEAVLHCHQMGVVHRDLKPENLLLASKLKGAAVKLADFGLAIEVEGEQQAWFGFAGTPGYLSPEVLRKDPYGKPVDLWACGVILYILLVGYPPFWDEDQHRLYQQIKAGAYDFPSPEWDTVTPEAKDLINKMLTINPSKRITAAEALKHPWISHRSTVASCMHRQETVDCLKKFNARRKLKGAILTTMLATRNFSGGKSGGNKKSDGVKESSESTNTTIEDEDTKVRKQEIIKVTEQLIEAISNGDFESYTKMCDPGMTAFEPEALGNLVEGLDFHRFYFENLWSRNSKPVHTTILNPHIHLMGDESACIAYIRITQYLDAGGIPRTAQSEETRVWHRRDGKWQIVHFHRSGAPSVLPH
Observed: enzyme activity
Mode: inhibitor
Concentration: 10 µM
Measurement: inhibition
CC1(C)O[C@@H]2[C@@H](CO[C@@]3(COS(N)(=O)=O)OC(C)(C)O[C@@H]23)O1: -1%
O=C1NC(c2ccccc2)(c2ccccc2)C(=O)N1COP(=O)(O)O: -6%
CN1C2=CC(=O)/C(=N\NC(N)=O)C=C2CC1S(=O)(=O)O (stereo not shown): -3%
O=C(N=c1c(Cl)cn(O)cc1Cl)c1ccc(OC(F)F)c(OCC2CC2)c1: 12%
COc1ccc([C@@H]2CC(=O)c3c(O)cc(O[C@@H]4O[C@H](CO[C@@H]5O[C@@H](C)[C@H](O)[C@@H](O)[C@H]5O)[C@@H](O)[C@H](O)[C@H]4O)cc3O2)cc1OC: -11%
CC(C)CC(=O)O[C@H](CC(=O)[O-])C[N+](C)(C)C: -19%

Sample 6
Cell line: HaCaT
Concentration: 100 µM
Time: 18 h
Measurement: viability
Cc1cccn2c(=O)c(-c3nnn[nH]3)cnc12: 99.2%
O=C1NCC2(CCN(CCc3ccccc3)CC2)O1: 107%
CC(C)C(=O)Nc1ccc([N+](=O)[O-])c(C(F)(F)F)c1: 75.1%
Cc1nc(Nc2ccc(F)cc2)nc(N2CCc3ccccc3C2C)c1C (stereo not shown): 18.5%
O=C1[C@H](CC[C@H](O)c2ccc(F)cc2)[C@@H](c2ccc(O)cc2)N1c1ccc(F)cc1: 19.4%
O=C(O)c1ccc(O)c(O)c1: 116%
CN(C)c1cc(NC(=O)CNC(C)(C)C)c(O)c2c1C[C@H]1C[C@H]3[C@H](N(C)C)C(O)=C(C(N)=O)C(=O)[C@@]3(O)C(O)=C1C2=O: 89.3%

Excerpt of the above (sample 3):
BTK (Homo sapiens, UniProt Q06187): 90%
Ribosomal protein S6 kinase alpha-1, N-terminal kinase domain (RPS6KA1, Homo sapiens, UniProt Q15418): 91%
COQ8B (Homo sapiens, UniProt Q96D53): 100%
CDK8 (Homo sapiens, UniProt P49336): 100%
MAP3K10 (Homo sapiens, UniProt Q02779): 100%
Cyclin-dependent kinase 4, with cyclin D1 (CDK4, Homo sapiens, UniProt P11802): 91%
PAK6 (Homo sapiens, UniProt Q9NQU5): 100%
